Assay results of several laboratories.
A part holds a random share of what one study measured.

Sample 1
Target: Protein C-ets-1 (ETS1, Homo sapiens, UniProt P14921, residues 1-441, Y397A, full length assumed)
Technique: protein-binding microarray
Form: double-stranded DNA, one strand shown
Sample: in vitro
Concentration: not given
Notes: k-mer, scored over probes, only values ≥0.25
Reading: higher = stronger binding
Construct (chain): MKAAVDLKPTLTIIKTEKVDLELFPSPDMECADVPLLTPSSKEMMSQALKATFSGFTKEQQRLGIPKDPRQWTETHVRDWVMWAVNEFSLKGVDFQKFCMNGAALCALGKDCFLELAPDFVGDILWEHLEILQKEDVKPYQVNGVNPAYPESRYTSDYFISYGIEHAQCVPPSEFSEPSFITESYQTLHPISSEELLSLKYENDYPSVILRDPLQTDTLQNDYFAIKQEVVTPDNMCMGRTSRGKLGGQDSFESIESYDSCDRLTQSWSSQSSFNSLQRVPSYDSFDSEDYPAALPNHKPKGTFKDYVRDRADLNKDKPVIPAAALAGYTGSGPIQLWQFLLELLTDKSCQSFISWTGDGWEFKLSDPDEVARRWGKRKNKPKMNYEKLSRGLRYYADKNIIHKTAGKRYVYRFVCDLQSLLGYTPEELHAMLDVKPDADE
| Oligonucleotide | E-score |
| --- | --- |
| AGGAAGTG | 0.39 |
| TATTGTCA | 0.282 |
| ACTATAGT | 0.297 |
| AACAACAA | 0.307 |
| GGCAGTCA | 0.252 |
| ATACACAA | 0.26 |
| CTTGTAAC | 0.279 |
| CAACAAAA | 0.271 |

Sample 2
Cell line: HEK-293T
Observed: pseudovirus infection
Organism: VSV pseudotyped with SARS-CoV-2 spike
Concentration: 10 µM
Time: 16 h
Reference: vehicle-treated
| SMILES | GFP-positive cells [%] |
| --- | --- |
| Nc1ccn(C[C@@H](CO)OCP(=O)(O)O)c(=O)n1 | 88.2 |
| Nc1ncnc2c1ncn2[C@@H]1O[C@H](CO)[C@@H](O)[C@@H]1O | 87.8 |
| C[C@]12CC[C@H]3[C@@H](CCC4=CC(=O)CC[C@@H]43)[C@@H]1CC[C@@H]2O | 84.2 |
| CC(=O)OCC(=O)[C@@]1(O)CC[C@H]2[C@@H]3CCC4=CC(=O)CC[C@]4(C)[C@@]3(F)[C@@H](O)C[C@@]21C | 105 |

Sample 3
Target: Replicase polyprotein 1ab, nsp13 helicase (rep, Severe acute respiratory syndrome coronavirus 2, UniProt P0DTD1)
Observed: helicase activity
Organism: SARS-CoV-2
Concentration: 20 µM
| SMILES | inhibition |
| --- | --- |
| O=C(O)c1ccc(N2C(=O)/C(=C\c3ccc(-c4ccc([N+](=O)[O-])cc4)o3)C=C2c2ccccc2)cc1 | 70.5% |
| O=S(=O)(O)c1ccc(-c2c3nc(c(-c4ccc(S(=O)(=O)O)cc4)c4ccc([nH]4)c(-c4ccc(S(=O)(=O)O)cc4)c4nc(c(-c5ccc(S(=O)(=O)O)cc5)c5ccc2[nH]5)C=C4)C=C3)cc1 | 82.3% |
| O=C(/C=C/c1ccc2ccccc2n1)c1ccncc1 | 91.3% |
| CC(C)N[C@@H]1CCn2c(=O)[nH]c3cccc(c32)[C@H]1O | 78.8% |
| CCOC(=O)C1=C(N)Oc2ccc(Br)cc2[C@H]1[C@H](C#N)C(=O)OCC | 94.5% |
| CCn1c(N)c(C(=O)NC)c(=O)c2ccc(C#C[C@@](C)(O)COC)nc21 | 99.9% |
| Cc1ccc(S(=O)(=O)/C=C/C#N)cc1 | 99.2% |
| O=[N+]([O-])C=Cc1ccc2c(c1)OCO2 | 81.8% |
| Cc1nc(C#Cc2ccnc(Cl)c2)c(C)n1-c1ccc(OC(F)(F)F)cc1 | 99.6% |
| Oc1c(I)cc(I)c(O)c1I | 100% |
| CCC(C)SSc1ncc[nH]1 (centres unmarked) | 100% |
| CC(=O)[O][Pt]([NH2])([Cl])([Cl])([NH]C1CCCCC1)[O]C(C)=O | 96.9% |
| C=CC(=O)c1ccc2ccccc2c1 | 99.1% |

Sample 4
Target: Replicase polyprotein 1ab, main protease (rep, Severe acute respiratory syndrome coronavirus 2, UniProt P0DTD1)
Observed: enzyme activity
Action: inhibitor
Concentration: 20 µM
Notes: hit confirmation
| SMILES | inhibition [%] |
| --- | --- |
| CCCCC1C(=O)N(c2ccccc2)N(c2ccc(O)cc2)C1=O (centres unmarked) | 39.7 |
| FC(F)(F)c1cc(NC(=S)Nc2ccc(Br)cc2-c2nnn[nH]2)cc(C(F)(F)F)c1 | 55.4 |
| NCCc1cc(O)c(O)cc1O | 37 |
| O=[N+]([O-])c1ccc(Sc2cccc[n+]2[O-])c2nonc12 | 111 |

A few entries again (sample 4):
| SMILES | inhibition [%] |
| --- | --- |
| NCCc1cc(O)c(O)cc1O | 37 |
| CCCCC1C(=O)N(c2ccccc2)N(c2ccc(O)cc2)C1=O (centres unmarked) | 39.7 |
